Published values gathered from unrelated publications.
Protocols differ between the studies behind these lines. ± marks the error that the study gave.

`COc1cccc2c1[n+]([O-])c1cccc(OC(=O)N(C)C)c1[n+]2[O-]` — result for “log effective permeability”: -5.3 (PAMPA; artificial membrane in PBS; 50 µM, 5 h).
For `CN1CC[C@]23c4c5ccc(O)c4O[C@H]2[C@@H](O)CC[C@H]3[C@H]1C5`, “log k amino protonation” read 8.98 (phenolate protonated).
`c1cc2ccc3ccc4ccc5cccc6c(c1)c2c3c4c56` gave a log K(PDMS-water) of 5.19 ± 0.15 (fresh water; 12 (unit not given), 20 °C, SSP sampler, 100 µm).
For `CC(C)c1ccc(NC(=O)N(C)C)cc1`, “log Freundlich coefficient” read 2.36 (SPME sorption isotherm; PBS).
Under “log k amino protonation”, `CN1CC[C@]23c4c5ccc(O)c4O[C@H]2[C@@H](O)C=C[C@H]3[C@H]1C5` is recorded as 8.9.
For `C=CC[C@@]1(C)NC(=O)CNC(=O)[C@H](Cc2c[nH]c3ccccc23)NC(=O)[C@H](CC(=O)O)NC(=O)[C@H](CCC(N)=O)NC(=O)[C@H](Cc2c[nH]c3ccccc23)NC(=O)[C@H](C(C)C)NC(=O)[C@@H](NC(=O)[C@@H](NC(C)=O)[C@@H](C)CC)CSSC[C@@H](C(=O)N[C@H](C(N)=O)[C@@H](C)O)NC(=O)[C@H](CCCNC(=N)N)NC(=O)[C@H](Cc2c[nH]cn2)NC1=O`, “log retention factor” read 0.136 (isocratic RP-HPLC; C18 column; pH 7.4, 25 °C, elution method 2; higher = more lipophilic).
For `Clc1ccc(-c2ccc(Cl)cc2Cl)cc1`, the log K(PDMS-water) was 5.26 ± 0.01 (fresh water; 20 °C, S30-2 sampler, 30 µm).
For `CC[C@H](C)[C@H](NC(C)=O)C(=O)N[C@H]1CSSC[C@@H](C(=O)N[C@H](C(N)=O)[C@@H](C)O)NC(=O)[C@H](CCCNC(=N)N)NC(=O)[C@H](Cc2cnc[nH]2)NC(=O)[C@H](Cc2cccc3ccccc23)NC(=O)CNC(=O)[C@H](Cc2c[nH]c3ccccc23)NC(=O)[C@H](CC(=O)O)NC(=O)[C@H](CCC(N)=O)NC(=O)[C@H](Cc2c[nH]c3ccccc23)NC(=O)[C@H](C(C)C)NC1=O`, “log retention factor” read 0.699 (isocratic RP-HPLC; C18 column; pH 7.4, 25 °C, elution method 2; higher = more lipophilic).
Under “log D octanol/water”, `CCC(C)(c1ccc(O)cc1)c1ccc(O)cc1` is recorded as 4.13 (octanol/water).
`CC[C@H](C)[C@H](NC(=O)[C@H](CO)NC(=O)[C@H](CCCNC(=N)N)NC(C)=O)C(=O)N[C@H]1CSSC[C@@H](C(=O)N[C@H](C(N)=O)[C@@H](C)O)NC(=O)[C@H](CCCNC(=N)N)NC(=O)[C@H](Cc2c[nH]cn2)NC(=O)[C@H](C)NC(=O)CNC(=O)[C@H](Cc2c[nH]c3ccccc23)NC(=O)[C@H](CC(=O)O)NC(=O)[C@H](CCC(N)=O)NC(=O)[C@H](Cc2ccc(O)cc2)NC(=O)[C@H](C(C)C)NC1=O` — result for “log retention factor”: -0.509 (isocratic RP-HPLC, C18; 32% acetonitrile, phosphate pH 7.4, 1% TFA; 25 °C).
`Cn1c(N)nc2c3cccnc3ccc21`: “log Freundlich coefficient” 1.06 (SPME sorption isotherm; PBS).
The log K(PDMS-water) of `Clc1cc(Cl)c(-c2cc(Cl)c(Cl)cc2Cl)cc1Cl` is reported as 6.42 ± 0.06 (fresh water; 20 °C, S100 sampler, 100 µm).
`COc1ccc2c3c1O[C@H]1[C@@H](O)C=C[C@@]4(O)[C@@H](C2)N(C)CC[C@]314` gave a log K of 9.21 (potentiometric titration; methanol/water, extrapolated to water).
For `CC(=O)N[C@@H](CC(N)=O)C(=O)N[C@@H](CCCNC(=N)N)C(=O)N[C@@H](CC(C)C)C(=O)N[C@H]1CSSC[C@@H](C(=O)N[C@H](C(N)=O)[C@@H](C)O)NC(=O)[C@H](CCCNC(=N)N)NC(=O)[C@H](Cc2c[nH]cn2)NC(=O)[C@H](Cc2cccc3ccccc23)NC(=O)CNC(=O)[C@H](Cc2c[nH]c3ccccc23)NC(=O)[C@H](CC(=O)O)NC(=O)[C@H](CCC(N)=O)NC(=O)[C@H](Cc2cccc3ccccc23)NC(=O)[C@H](C(C)C)NC1=O`, “log retention factor” read 0.863 (isocratic RP-HPLC; C18 column; pH 7.4, 25 °C, elution method 2; higher = more lipophilic).
For `CN1CCN(C(=O)Oc2cccc3c2[n+]([O-])c2cc(Br)c(Br)cc2[n+]3[O-])CC1`, “log effective permeability” read -4.88 (PAMPA; artificial membrane in PBS; 50 µM, 5 h).
`CN1CC[C@]23c4c5ccc(O)c4O[C@H]2[C@@H](O)CC[C@@]3(O)[C@H]1C5`: “log tautomerization constant” 0.65.
`COc1ccnc(C(=O)N[C@H]2COC(=O)[C@H](Cc3ccccc3)[C@@H](OC(=O)C(C)C)[C@H](C)OC2=O)c1OCOC(=O)C(C)C` has a log Kow of 4.2 (pH 5, 20 °C).
`CN1CCN(C(=O)Oc2cccc3c2[n+]([O-])c2cc(Cl)c(Cl)cc2[n+]3[O-])CC1`: “log effective permeability” -4.97 (PAMPA; artificial membrane in PBS; 50 µM, 5 h).
For `c1ccc2c(c1)cc1ccc3cccc4ccc2c1c34`, the log K(PDMS-water) was 5.24 ± 0.03 (fresh water; 12 (unit not given), 20 °C, S30-2 sampler, 30 µm).
Under “log effective permeability”, `COc1cccc2c1[n+]([O-])c1cccc(OC(=O)N3CCCC3)c1[n+]2[O-]` is recorded as -5.1 (PAMPA; artificial membrane in PBS; 50 µM, 5 h).
Under “log tautomerization constant”, `CN1CC[C@]23c4c5ccc(O)c4O[C@H]2[C@@H](O)C=C[C@@]3(O)[C@H]1C5` is recorded as 0.41.
`COc1cccc2c1[n+]([O-])c1cccc(OC(=O)N3CCN(C)CC3)c1[n+]2[O-]` — result for “log effective permeability”: -5.74 (PAMPA; artificial membrane in PBS; 50 µM, 5 h).
For `Cc1cc(O)ccc1Cl`, “log Freundlich coefficient” read 1.52 (SPME sorption isotherm; PBS).
Under “log retention factor”, `CC(=O)N[C@@H](CC(N)=O)C(=O)N[C@@H](CC(N)=O)C(=O)N[C@@H](CC(C)C)C(=O)N[C@H]1CSSC[C@@H](C(=O)N[C@H](C(N)=O)[C@@H](C)O)NC(=O)[C@H](CCCNC(=N)N)NC(=O)[C@H](Cc2c[nH]cn2)NC(=O)[C@H](Cc2cccc3ccccc23)NC(=O)CNC(=O)[C@H](Cc2c[nH]c3ccccc23)NC(=O)[C@H](CC(=O)O)NC(=O)[C@H](CCC(N)=O)NC(=O)[C@H](Cc2cccc3ccccc23)NC(=O)[C@H](C(C)C)NC1=O` is recorded as 0.771 (isocratic RP-HPLC, C18; 32% acetonitrile, phosphate pH 7.4, 1% TFA; 25 °C).
`Cc1cc2c(cc1C)[n+]([O-])c1c(OC(=O)N3CCCC3)cccc1[n+]2[O-]`: “log effective permeability” -4.85 (PAMPA; artificial membrane in PBS; 50 µM, 5 h).
`CC[C@H](C)[C@H](NC(=O)[C@H](CO)NC(=O)[C@H](CCCNC(=N)N)NC(C)=O)C(=O)N[C@H]1CSSC[C@@H](C(=O)N[C@H](C(N)=O)[C@@H](C)O)NC(=O)[C@H](CCCNC(=N)N)NC(=O)[C@H](Cc2c[nH]cn2)NC(=O)[C@H](Cc2cccc3ccccc23)NC(=O)CNC(=O)[C@H](Cc2c[nH]c3ccccc23)NC(=O)[C@H](CC(=O)O)NC(=O)[C@H](CCC(N)=O)NC(=O)[C@H](Cc2c[nH]c3ccccc23)NC(=O)[C@H](C(C)C)NC1=O`: “log retention factor” 0.417 (isocratic RP-HPLC, C18; 32% acetonitrile, phosphate pH 7.4, 1% TFA; 25 °C).
`Clc1cc(Cl)cc(-c2cc(Cl)ccc2Cl)c1` has a log K(PDMS-water) of 5.75 ± 0.01 (fresh water; 20 °C, S30-2 sampler, 30 µm).
`CC[C@H](C)[C@H](NC(C)=O)C(=O)N[C@H]1CSSC[C@@H](C(=O)N[C@H](C(N)=O)[C@@H](C)O)NC(=O)[C@H](CCCNC(=N)N)NC(=O)[C@H](Cc2cnc[nH]2)NC(=O)[C@H](Cc2cccc3ccccc23)NC(=O)CNC(=O)[C@H](Cc2c[nH]c3ccccc23)NC(=O)[C@H](CC(=O)O)NC(=O)[C@H](CCC(N)=O)NC(=O)[C@H](Cc2cn(C)c3ccccc23)NC(=O)[C@H](C(C)C)NC1=O` — result for “log retention factor”: 1.01 (isocratic RP-HPLC; C18 column; pH 7.4, 25 °C, elution method 2; higher = more lipophilic).
For `CNC(=O)Oc1cccc2c1OC(C)(C)C2O` (centres unmarked), “log Freundlich coefficient” read 1.49 (SPME sorption isotherm; PBS).
The log K(PDMS-water) of `Clc1cc(Cl)c(-c2c(Cl)c(Cl)cc(Cl)c2Cl)cc1Cl` is reported as 6.75 ± 0.07 (fresh water; 20 °C, S30-1 sampler, 30 µm).
For `CCc1cccc(C)c1N(C(=O)CCl)C(C)COC` (centres unmarked), “log Freundlich coefficient” read 2.32 (SPME sorption isotherm; PBS).
For `Cc1c(C)[n+]([O-])c2c(OC(=O)N3CCOCC3)cccc2[n+]1[O-]`, “log effective permeability” read -4.65 (PAMPA; artificial membrane in PBS; 50 µM, 5 h).
Under “log retention factor”, `CC[C@H](C)[C@H](NC(C)=O)C(=O)N[C@H]1CSSC[C@@H](C(=O)N[C@H](C(N)=O)[C@@H](C)O)NC(=O)[C@H](CCCNC(=N)N)NC(=O)[C@H](Cc2c[nH]cn2)NC(=O)[C@@](C)(CC)NC(=O)CNC(=O)[C@H](Cc2c[nH]c3ccccc23)NC(=O)[C@H](CC(=O)O)NC(=O)[C@H](CCC(N)=O)NC(=O)[C@H](Cc2c[nH]c3ccccc23)NC(=O)[C@H](C(C)C)NC1=O` is recorded as 0.117 (isocratic RP-HPLC; C18 column; pH 7.4, 25 °C, elution method 2; higher = more lipophilic).
`[O-][n+]1c2ccccc2[n+]([O-])c2c(O)cccc21` — result for “log effective permeability”: -4.74 (PAMPA; artificial membrane in PBS; 50 µM, 5 h).
`c1ccc2c(c1)-c1ccc3ccc4cccc5cc-2c1c3c45` gave a log K(PDMS-water) of 5.54 ± 0.08 (fresh water; 20 °C).

Some of these lines once more:
`COc1cccc2c1[n+]([O-])c1cccc(OC(=O)N(C)C)c1[n+]2[O-]` — result for “log effective permeability”: -5.3 (PAMPA; artificial membrane in PBS; 50 µM, 5 h).
`[O-][n+]1c2ccccc2[n+]([O-])c2c(O)cccc21` — result for “log effective permeability”: -4.74 (PAMPA; artificial membrane in PBS; 50 µM, 5 h).
Under “log tautomerization constant”, `CN1CC[C@]23c4c5ccc(O)c4O[C@H]2[C@@H](O)C=C[C@@]3(O)[C@H]1C5` is recorded as 0.41.
`COc1ccnc(C(=O)N[C@H]2COC(=O)[C@H](Cc3ccccc3)[C@@H](OC(=O)C(C)C)[C@H](C)OC2=O)c1OCOC(=O)C(C)C` has a log Kow of 4.2 (pH 5, 20 °C).
For `CCc1cccc(C)c1N(C(=O)CCl)C(C)COC` (centres unmarked), “log Freundlich coefficient” read 2.32 (SPME sorption isotherm; PBS).
